Assay results from different studies.
Lines come from different studies, so protocols differ. ± marks the error that the study gave.

`CCCC[C@H](NC(=O)COCCOCCNC(=O)CN1CCN(CC(=O)O)CCN(CC(=O)O)CC1)C(=O)N[C@H]1CC(=O)NCCCC[C@@H](C(N)=O)NC(=O)[C@H](Cc2c[nH]c3ccccc23)NC(=O)[C@H](CCCNC(=N)N)NC(=O)[C@@H](Cc2ccccc2)NC(=O)[C@H](Cc2c[nH]cn2)NC1=O` [copper-64 labelled] has a tissue uptake of 0.99 ± 0.17 %ID/g (C57 mice, stomach; intravenous, 0.37 MBq, 2 h).
The tissue uptake of `N=C(N)NCCC[C@@H]1NC(=O)[C@H](CCCCNC(=O)CNC(=O)CNC(=O)CNC(=O)CC[C@H](NC(=O)CNC(=O)CNC(=O)CNC(=O)CN2CCN(CC(=O)O)CCN(CC(=O)O)CCN(CC(=O)O)CC2)C(=O)NCC(=O)NCC(=O)NCC(=O)NCCCC[C@@H]2NC(=O)[C@@H](Cc3ccccc3)NC(=O)[C@H](CC(=O)O)NC(=O)CNC(=O)[C@H](CCCNC(=N)N)NC2=O)NC(=O)[C@@H](Cc2ccccc2)NC(=O)[C@H](CC(=O)O)NC(=O)CNC1=O` [indium-111 labelled] is reported as 0.03 ± 0.01 %ID/g (female athymic nu/nu mice, blood; intravenous, 24 h).
`CC(C)C[C@H](NC(=O)CN1CCN(CC(=O)O)CCN(CC(=O)O)CC1)C(=O)N[C@@H](CC(C)C)C(=O)N[C@@H](CC(C)C)C(=O)N[C@@H](CC(C)C)C(=O)N[C@@H](CCCNC(=N)N)C(=O)N[C@H](C(=O)N[C@@H](CCCCN)C(=O)N[C@@H](CCCNC(=N)N)C(N)=O)C(C)C` [copper-64 labelled] has a tissue uptake of 2.65 ± 0.09 %ID/g (male CD1 mice, bone; intravenous, 15 min).
`N=C(N)NCCC[C@@H]1NC(=O)[C@H](CCCCNC(=O)CNC(=O)CNC(=O)CNC(=O)CC[C@H](NC(=O)CNC(=O)CNC(=O)CNC(=O)CC[C@H](NC(=O)CN2CCN(CC(=O)O)CCN(CC(=O)O)CCN(CC(=O)O)CC2)C(=O)NCC(=O)NCC(=O)NCC(=O)N[C@@H](CCC(=O)NCC(=O)NCC(=O)NCC(=O)NCCCC[C@@H]2NC(=O)[C@@H](Cc3ccccc3)NC(=O)[C@H](CC(=O)O)NC(=O)CNC(=O)[C@H](CCCNC(=N)N)NC2=O)C(=O)NCC(=O)NCC(=O)NCC(=O)NCCCC[C@@H]2NC(=O)[C@@H](Cc3ccccc3)NC(=O)[C@H](CC(=O)O)NC(=O)CNC(=O)[C@H](CCCNC(=N)N)NC2=O)C(=O)NCC(=O)NCC(=O)NCC(=O)NCCCC[C@@H]2NC(=O)[C@@H](Cc3ccccc3)NC(=O)[C@H](CC(=O)O)NC(=O)CNC(=O)[C@H](CCCNC(=N)N)NC2=O)NC(=O)[C@@H](Cc2ccccc2)NC(=O)[C@H](CC(=O)O)NC(=O)CNC1=O` [indium-111 labelled] gave a tissue uptake of 8.79 ± 2.98 %ID/g (female athymic nu/nu mice, intestine; intravenous, 4 h).
With `Cc1cc(-c2ccc(NC(=O)[C@H](CCCCNC(=O)CCOCCOCCC(=O)N[C@H](Cc3ccccc3)C(=O)N[C@H]3CSSC[C@@H](C(=O)N[C@H](C(=O)O)[C@@H](C)O)NC(=O)[C@H]([C@@H](C)O)NC(=O)[C@H](CCCCN)NC(=O)[C@@H](Cc4c[nH]c5ccccc45)NC(=O)[C@H](Cc4ccc(O)cc4)NC3=O)NC(=O)CN3CCN(CC(=O)O)CCN(CC(=O)O)CCN(CC(=O)O)CC3)c(C)c2)ccc1N=Nc1ccc2c(S(=O)(=O)O)cc(S(=O)(=O)O)c(N)c2c1O` [lutetium-177 labelled] the tissue uptake was 6.3 ± 1.36 %ID/g (BALB/c nude mice, male, AR-42J tumour, liver; intravenous, 1.48 MBq).
`CC(C)CC(CC(C)C)NC(=O)[C@H](Cc1cnc[nH]1)NC(=O)CNC(=O)[C@@H](NC(=O)[C@H](C)NC(=O)[C@H](Cc1c[nH]c2ccccc12)NC(=O)[C@H](CCC(N)=O)NC(=O)[C@@H](Cc1ccccc1)NC(=O)COCC(=O)Nc1ccc(CNC(=O)CN2CCN(CC(=O)O)CCN(CC(=O)O)CCN(CC(=O)O)CC2)cc1)C(C)C` [lutetium-177 labelled] has a tissue uptake of 6.61 ± 6.08 %ID/g (female NMRI-Foxn1 nu/nu mice, T47D xenograft, tumour; 4 MBq, 24 h, doxorubicin 5 mg/kg weekly for 2 weeks).
`CCCC[C@H](NC(=O)CNC(=O)CNC(=O)CN1CCN(CC(=O)O)CCN(CC(=O)O)CC1)C(=O)N[C@H]1CC(=O)NCCCC[C@@H](C(N)=O)NC(=O)[C@H](Cc2c[nH]c3ccccc23)NC(=O)[C@H](CCCNC(=N)N)NC(=O)[C@@H](Cc2ccccc2)NC(=O)[C@H](Cc2c[nH]cn2)NC1=O` [technetium-99m labelled] gave a tissue uptake of 1.44 ± 0.33 %ID/g (C57 mice, whole blood; intravenous, 0.037 MBq, 0.5 h).
`CC(C)C[C@@H](NC(=O)[C@@H](CCC(=O)O)NC(=O)[C@@H](CC(C)C)NC(=O)[C@@H](CC(C)C)NC(=O)[C@@H](CC(C)C)NC(=O)[C@H](NC(=O)[C@@H](CCC(=O)O)NC(=O)[C@H](NC(=O)[C@H]1CCCN1C(=O)[C@@H](Cc1ccccc1)NC(=O)[C@@H](CC(C)C)NC(=O)[C@@H](Cc1c[nH]c2ccccc12)NC(=O)[C@@H](CCC(=O)O)NC(=O)[C@@H](CC(C)C)NC(=O)[C@@H](Cc1ccc(O)cc1)NC(=O)[C@@H](CCCNC(=N)N)NC(=O)[C@@H](C)NC(=O)[C@@H](Cc1c[nH]c2ccccc12)NC(=O)[C@H]1CCCN1C(=O)[C@@H](CC(N)=O)NC(=O)[C@@H](CCC(N)=O)NC(=O)[C@@H](CCC(=O)O)NC(=O)[C@@H](CCC(=O)O)NC(=O)[C@@H](CSC1CC(=O)N(CCNC(=O)CN2CCN(CC(=O)O)CCN(CC(=O)O)CC2)C1=O)NC(=O)[C@@H](C)N)[C@H](C)O)[C@H](C)O)C(=O)O` (stereo partly shown) [copper-64 labelled] has a tissue uptake of 6.37 ± 0.11 %ID/g (BALB/c mice, female, 4T1 orthotopic tumour, small intestine; intravenous, 4 h).
With `N=C(N)NCCC[C@@H]1NC(=O)[C@H](CCCCNC(=O)CC[C@H](NC(=O)CC[C@H](NC(=O)CN2CCN(CC(=O)O)CCN(CC(=O)O)CCN(CC(=O)O)CC2)C(=O)N[C@@H](CCC(=O)NCCCC[C@@H]2NC(=O)[C@@H](Cc3ccccc3)NC(=O)[C@H](CC(=O)O)NC(=O)CNC(=O)[C@H](CCCNC(=N)N)NC2=O)C(=O)NCCCC[C@@H]2NC(=O)[C@@H](Cc3ccccc3)NC(=O)[C@H](CC(=O)O)NC(=O)CNC(=O)[C@H](CCCNC(=N)N)NC2=O)C(=O)NCCCC[C@@H]2NC(=O)[C@@H](Cc3ccccc3)NC(=O)[C@H](CC(=O)O)NC(=O)CNC(=O)[C@H](CCCNC(=N)N)NC2=O)NC(=O)[C@@H](Cc2ccccc2)NC(=O)[C@H](CC(=O)O)NC(=O)CNC1=O` [indium-111 labelled] the tissue uptake was 0.04 ± 0.01 %ID/g (female athymic nu/nu mice, blood; intravenous, 24 h).
With `CC(C)C[C@@H](NC(=O)[C@@H](CCC(=O)O)NC(=O)[C@@H](CC(C)C)NC(=O)[C@@H](CC(C)C)NC(=O)[C@@H](CC(C)C)NC(=O)[C@H](NC(=O)[C@@H](CCC(=O)O)NC(=O)[C@H](NC(=O)[C@H]1CCCN1C(=O)[C@@H](Cc1ccccc1)NC(=O)[C@@H](CC(C)C)NC(=O)[C@@H](Cc1c[nH]c2ccccc12)NC(=O)[C@@H](CCC(=O)O)NC(=O)[C@@H](CC(C)C)NC(=O)[C@@H](Cc1ccc(O)cc1)NC(=O)[C@@H](CCCNC(=N)N)NC(=O)[C@@H](C)NC(=O)[C@@H](Cc1c[nH]c2ccccc12)NC(=O)[C@H]1CCCN1C(=O)[C@@H](CC(N)=O)NC(=O)[C@@H](CCC(N)=O)NC(=O)[C@@H](CCC(=O)O)NC(=O)[C@@H](CCC(=O)O)NC(=O)[C@@H](CS)NC(=O)[C@@H](C)NC(=S)Nc1ccc(CC2CN(CC(=O)O)CCN(CC(=O)O)CCN2CC(=O)O)cc1)[C@H](C)O)[C@H](C)O)C(=O)O` (stereo partly shown) [copper-64 labelled] the tissue uptake was 0.307 ± 0.077 %ID/g (BALB/c mice, female, 4T1 orthotopic tumour, small intestine; intravenous, 4 h).
For `Cc1cc(O)cc(C)c1C[C@H](NC(=O)[C@@H]1CCCN1C(=O)[C@H](CCCNC(=N)N)NC(=O)[C@H](CCCNC(=N)N)N(C)C(=O)[C@@H]1CCCN1C(=O)[C@H](CCCCN)NC(=O)CCNC(=O)CN1CCN(CC(=O)O)CCN(CC(=O)O)CCN(CC(=O)O)CC1)C(=O)N[C@H](C(=O)N[C@@H](CC(C)C)C(=O)O)C(C)(C)C` [lutetium-177 labelled], the tissue uptake was 3.31 ± 0.41 %ID/g (CF-1 mice, small intestine; dose not given, 1 h).
The tissue uptake of `CN1C(=O)[C@@H](Cc2ccc(O)cc2)NC(=O)CNC(=O)[C@H](Cc2ccc3ccccc3c2)NC(=O)[C@H](CCCNC(=N)N)NC(=O)[C@H]1CCCNC(=O)c1ccc(CNC(=O)CN2CCN(CC(=O)O)CCN(CC(=O)O)CCN(CC(=O)O)CC2)cc1` [gallium-68 labelled] is reported as 0.9 ± 0.2 %ID/g (SCID mice, lymphoma xenograft, lungs; intravenous, 2 h).
For `CSCC[C@H](NC(=O)[C@H](CC(C)C)NC(=O)[C@H](Cc1c[nH]cn1)NC(=O)CNC(=O)[C@@H](NC(=O)[C@H](C)NC(=O)[C@H](Cc1c[nH]c2ccccc12)NC(=O)[C@H](CCC(N)=O)NC(=O)CCOCCOCCOCCOCCNC(=O)CN1CCN(CC(=O)O)CCN(CC(=O)O)CCN(CC(=O)O)CC1)C(C)C)C(N)=O` [indium-111 labelled], the tissue uptake was 2.7 ± 1 %ID/g (male Swiss nu/nu mice, PC-3 tumour, kidney; intravenous, 10 pmol, 1 h).

A few entries again:
The tissue uptake of `CN1C(=O)[C@@H](Cc2ccc(O)cc2)NC(=O)CNC(=O)[C@H](Cc2ccc3ccccc3c2)NC(=O)[C@H](CCCNC(=N)N)NC(=O)[C@H]1CCCNC(=O)c1ccc(CNC(=O)CN2CCN(CC(=O)O)CCN(CC(=O)O)CCN(CC(=O)O)CC2)cc1` [gallium-68 labelled] is reported as 0.9 ± 0.2 %ID/g (SCID mice, lymphoma xenograft, lungs; intravenous, 2 h).
